Measurements of several laboratories.
A part holds a random share of what one study measured. Changes are numbered by the printed parent chain.

Block 1 — method: DHFR PCA, deep sequencing; sample: yeast; added: (+)-ABA 4.8 µM; reference: wild-type fitted maximum; reading: higher = stronger binding; endpoint: relative binding score
Target: ABI1, truncated, D143A, DHFR fusion (Arabidopsis thaliana)
Notes: methotrexate growth selection, single substitutions
Parent: PYL1, truncated, DHFR fusion (Arabidopsis thaliana); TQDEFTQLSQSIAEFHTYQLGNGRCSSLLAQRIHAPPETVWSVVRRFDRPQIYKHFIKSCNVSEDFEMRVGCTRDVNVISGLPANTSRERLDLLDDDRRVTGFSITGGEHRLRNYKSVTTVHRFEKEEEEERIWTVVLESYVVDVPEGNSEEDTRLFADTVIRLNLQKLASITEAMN; partner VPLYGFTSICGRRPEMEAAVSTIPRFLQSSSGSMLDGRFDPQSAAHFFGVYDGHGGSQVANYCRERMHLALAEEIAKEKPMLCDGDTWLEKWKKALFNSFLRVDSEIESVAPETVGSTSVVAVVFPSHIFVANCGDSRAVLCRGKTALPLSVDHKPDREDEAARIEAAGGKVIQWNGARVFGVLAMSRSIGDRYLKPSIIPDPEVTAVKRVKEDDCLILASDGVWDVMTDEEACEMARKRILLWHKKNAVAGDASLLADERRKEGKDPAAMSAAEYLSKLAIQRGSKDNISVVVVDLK
F15A: 17.7%
P146R: 4.89%
V70Y: -5.45%
R163G: 37.6%
V78T: 38.7%
F103G: -6.12%
C60N: -5.39%
V40E: -23%
T6L: 69.7%
P83R: 11.9%
A170F: 0.662%
P146S: 6.7%

Block 2 — method: RNA Bind-n-Seq; molecule type: RNA; sample: in vitro; tested at: not given; reference: input RNA pool; reading: higher = stronger binding; endpoint: bound/input enrichment
Target: RING finger protein unkempt homolog, zinc fingers 1-6, GST-SBP tag (UNK, Homo sapiens, UniProt Q9C0B0, residues 30-357)
Sequence of UniProt Q9C0B0 (30-357, looked up): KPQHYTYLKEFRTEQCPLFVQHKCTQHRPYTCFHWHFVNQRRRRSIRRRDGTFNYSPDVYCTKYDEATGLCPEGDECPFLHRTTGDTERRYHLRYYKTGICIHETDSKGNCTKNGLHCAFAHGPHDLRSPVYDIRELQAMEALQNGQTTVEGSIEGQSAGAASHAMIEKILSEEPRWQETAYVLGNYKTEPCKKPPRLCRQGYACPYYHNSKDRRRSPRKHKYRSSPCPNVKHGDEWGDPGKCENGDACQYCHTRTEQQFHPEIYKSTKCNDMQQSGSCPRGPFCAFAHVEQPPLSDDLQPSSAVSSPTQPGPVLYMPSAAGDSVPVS
Notes: RNA with constant flanks, human-mouse chimeric sites, ends assumed
Shared flanks, not repeated: GGGAGUUCUACAGUCCGACGAUC … CAACAGAGGAUUGAGCAUCA
UCAGAAGCUGUGCUGGGUCACUUUUCAUAUCCAGAUCCUUCACAGUGGACAGAUGAAGAACUGGGAAUCCCUCCUGAUGACGAGGACUGACACUGUAAACUCUCUGGCACUCUGUACGCA: 0.452 ratio
CUGUGACCACAAGAUCCUGAAGUUUGAGCAGCUGAAGUUGACUCCCUCUCCUUGCCUGCCUAGUUUCCCACUGCCCCCCCAUCCCCCAGUGUCGGCUGAGAUGUUGCCUCUGCACGGUUC: 1.34 ratio
CACAGAGGAGAUCUGCUGUUCCUCACGAAUUUCCGGGAGGACCCCAUCAGAGCUGGUGAAAUAGUUGUUUUUAAAGUUGAAGGAAGAGACAUUCCGAUAGUUCACAGAGUAAUCAAGGUU: 5.14 ratio
UUACCCGAGAACGAGGAUGAGCUGGAGAGCACCAACAGGCGCUACACCAAGAGGGACUGCAGCACUUUCCUCAGAACUAGUGAGACGGGCAUUGUGGACCAGGUCAUGGUAACUCUCAAC: 0.127 ratio
CGGAGCCCUCCUCUCCCCCAGGCCCGAGAUAUAACCCACCAGUGCCUUUUGUCUUCCUGUCAGCUCUAAUCAAUCAUCCUGUCCUCUCACGCCCACACCAAGUGCCCAAAGUGGGGAGGG: 0.65 ratio
CUCGGCACCGGCACGCUUUACAUCGCGGAGAGCCGCCUGUCCUGGUUAGAUGGUUCGGGAUUAGGAUUCUCACUGGAAUACCCCACCAUUAGUUUACAUGCAUUAUCCAGGGAUCCAAAC: 1.82 ratio
GGUGGGGUGGUCAUUGCCGUUUGAGCUGCUGAUUUUCAUGAGUCGCCUUCAAAACUCUCGUGUAGGGUUGACAAUGUAAGGGGUGGGGGGAUCCAGCUAUUUUUUUUAUUUUCAAGUCCA: 2.75 ratio
UGUAGUUUCUUGAUUUAUCAUUUUUCUCUUUUCUUUCAGAUCGUCAGGAAAAGCCUAAAGAUUAGACUGUAAGAAAAACAGAAGCCAUGUUUCGAAGACCUGUGUUACAGGUAUUUCGUC: 0.203 ratio

Block 3 — method: protein-binding microarray; molecule type: double-stranded DNA, one strand shown; sample: in vitro; tested at: 250 nM; notes: 60-bp whole probe; added: salmon DNA 0.4 mg/ml; reference: random background probes; reading: higher = stronger binding; endpoint: log fluorescence; shared flanks, not repeated: GCCTAGCAC … GTCTTGATTCGCTTGACGCTGCTG
Target: Interferon regulatory factor 7, full length, phosphomimetic (IRF7, Homo sapiens, UniProt Q92985, residues 1-503, S101K/S471D/S472D/S475D/S476D/S477D/S483D/S484D/S487D)
Sequence of UniProt Q92985 (whole entry, unmodified, looked up): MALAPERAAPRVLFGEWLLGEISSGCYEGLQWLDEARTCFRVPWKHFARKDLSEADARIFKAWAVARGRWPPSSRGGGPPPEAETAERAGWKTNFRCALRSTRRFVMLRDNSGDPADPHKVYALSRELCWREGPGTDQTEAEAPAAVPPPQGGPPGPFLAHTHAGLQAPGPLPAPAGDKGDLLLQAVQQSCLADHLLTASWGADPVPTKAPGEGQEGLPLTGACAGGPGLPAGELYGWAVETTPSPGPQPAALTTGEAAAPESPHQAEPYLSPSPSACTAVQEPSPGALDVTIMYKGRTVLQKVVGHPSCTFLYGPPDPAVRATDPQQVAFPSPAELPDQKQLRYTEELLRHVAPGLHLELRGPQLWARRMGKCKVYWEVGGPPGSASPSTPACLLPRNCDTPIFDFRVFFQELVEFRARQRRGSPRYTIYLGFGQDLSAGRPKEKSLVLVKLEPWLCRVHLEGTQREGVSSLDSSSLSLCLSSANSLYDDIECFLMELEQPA
TTAGGACTGCTTATCGTTTAGTGCTAG: 0.215 z-score
TTAGATTTCAGACTGGAATAGTGCTAG: 0.752 z-score
CTCTGCTTGTGTCTGGGATTGTGCTAG: -0.35 z-score
TTAGTACTGAGTTTCGATTAGTGCTAG: 7.8 z-score
CTCTTGATCCCGAACTGGCCGTGCTAG: 0.433 z-score
TTATGTTCCCTTTTCCTTTAGTGCTAG: 3.06 z-score
ATCCCATTAAATTTTAATAAGTGCTAG: 1.19 z-score
TTAGGTATCAACACTGGGTTAGTGCTA: -0.245 z-score
TCAATTTTGGTTTTCATACTGTGCTAG: 1.25 z-score
TTAGATAACGGGACTGGATTAGTGCTA: 0.0181 z-score
TCATATTTTTTTCCAGAACTGTGCTAG: 1.13 z-score
TCAAGTCCCACATCTCTGACTGTGCTA: 0.802 z-score
TTAGATATGAGTCTCGATTAGTGCTAG: 1.43 z-score
GACGGACTAGGTCTCGGGACGTGCTAG: 0.0181 z-score
TTAGGTTTCGACTTTCGGCTAGTGCTA: 10.6 z-score
GAAAACAAAGAAAATACAAAGTGCTAG: 0.749 z-score
ATAGGTTTCGGTATCGGTTAGTGCTAG: 11.1 z-score
CTAGATTTCAGTTTCGATTAGTGCTAG: 9.82 z-score
GACGATTTCCGTTTCGAGACGTGCTAG: 4.04 z-score

Block 4 — target: CCND3, cyclin fold, Cln2 fusion (human); method: yeast growth competition, sequencing; sample: yeast; notes: weak parent motif; reference: not given; reading: higher = stronger binding; endpoint: normalised enrichment score
Parent: RB1 docking peptide (human); PKPLKKLRFDIEG; partner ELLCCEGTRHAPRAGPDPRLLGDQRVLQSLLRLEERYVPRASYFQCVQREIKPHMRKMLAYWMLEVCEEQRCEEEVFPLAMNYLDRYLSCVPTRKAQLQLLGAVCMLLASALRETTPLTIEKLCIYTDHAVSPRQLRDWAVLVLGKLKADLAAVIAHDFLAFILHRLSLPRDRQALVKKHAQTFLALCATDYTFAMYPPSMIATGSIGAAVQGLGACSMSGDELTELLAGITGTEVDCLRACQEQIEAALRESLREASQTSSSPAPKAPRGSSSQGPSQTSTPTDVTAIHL
K5S: 0.116
R8N: 0.106
G13D: 0.0788
F9T: 0.163
P1I: 0.0248
L4A: 0.172
K5E: 0.0854
I11Q: 0.0689
K6E: 0.0307
P3T: 0.0915
G13Y: 0.0232
I11K: 0.126
D10Y: 0.249
E12I: 0.196
K5G: 0.124
K2L: 0.152
P1M: 0.0101
K2I: 0.182
